{"data": "Experimental data from different studies", "SIK3": "Serine/threonine-protein kinase SIK3 (SIK3, Homo sapiens, UniProt Q9Y2K2)", "Slc6a4": "Sodium-dependent serotonin transporter (Slc6a4, Rattus norvegicus, UniProt P31652)", "SIGMAR1": "Sigma non-opioid intracellular receptor 1 (SIGMAR1, Homo sapiens, UniProt Q99720)", "PIK3CA": "Phosphatidylinositol 4,5-bisphosphate 3-kinase catalytic subunit alpha isoform (PIK3CA, Homo sapiens, UniProt P42336)", "note": "± marks the error that the study gave.", "UniProt P31652, sequence (whole entry, looked up)": "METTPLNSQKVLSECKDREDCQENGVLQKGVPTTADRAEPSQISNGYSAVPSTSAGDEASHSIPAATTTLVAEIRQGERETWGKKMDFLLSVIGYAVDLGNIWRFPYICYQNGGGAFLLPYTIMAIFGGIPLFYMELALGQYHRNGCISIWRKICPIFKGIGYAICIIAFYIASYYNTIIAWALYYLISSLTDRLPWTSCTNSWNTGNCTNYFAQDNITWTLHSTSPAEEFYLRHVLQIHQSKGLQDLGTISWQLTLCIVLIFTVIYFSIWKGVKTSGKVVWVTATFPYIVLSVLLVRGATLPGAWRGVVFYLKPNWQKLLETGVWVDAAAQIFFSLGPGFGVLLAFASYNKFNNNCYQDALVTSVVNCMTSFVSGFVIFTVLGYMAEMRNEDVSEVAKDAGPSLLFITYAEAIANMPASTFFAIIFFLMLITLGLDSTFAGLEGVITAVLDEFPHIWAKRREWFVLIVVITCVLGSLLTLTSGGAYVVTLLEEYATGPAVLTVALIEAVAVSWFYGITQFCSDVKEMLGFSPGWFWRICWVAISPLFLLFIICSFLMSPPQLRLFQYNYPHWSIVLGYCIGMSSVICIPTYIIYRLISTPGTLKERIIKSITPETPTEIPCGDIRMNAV", "UniProt P42336, sequence (whole entry, looked up)": "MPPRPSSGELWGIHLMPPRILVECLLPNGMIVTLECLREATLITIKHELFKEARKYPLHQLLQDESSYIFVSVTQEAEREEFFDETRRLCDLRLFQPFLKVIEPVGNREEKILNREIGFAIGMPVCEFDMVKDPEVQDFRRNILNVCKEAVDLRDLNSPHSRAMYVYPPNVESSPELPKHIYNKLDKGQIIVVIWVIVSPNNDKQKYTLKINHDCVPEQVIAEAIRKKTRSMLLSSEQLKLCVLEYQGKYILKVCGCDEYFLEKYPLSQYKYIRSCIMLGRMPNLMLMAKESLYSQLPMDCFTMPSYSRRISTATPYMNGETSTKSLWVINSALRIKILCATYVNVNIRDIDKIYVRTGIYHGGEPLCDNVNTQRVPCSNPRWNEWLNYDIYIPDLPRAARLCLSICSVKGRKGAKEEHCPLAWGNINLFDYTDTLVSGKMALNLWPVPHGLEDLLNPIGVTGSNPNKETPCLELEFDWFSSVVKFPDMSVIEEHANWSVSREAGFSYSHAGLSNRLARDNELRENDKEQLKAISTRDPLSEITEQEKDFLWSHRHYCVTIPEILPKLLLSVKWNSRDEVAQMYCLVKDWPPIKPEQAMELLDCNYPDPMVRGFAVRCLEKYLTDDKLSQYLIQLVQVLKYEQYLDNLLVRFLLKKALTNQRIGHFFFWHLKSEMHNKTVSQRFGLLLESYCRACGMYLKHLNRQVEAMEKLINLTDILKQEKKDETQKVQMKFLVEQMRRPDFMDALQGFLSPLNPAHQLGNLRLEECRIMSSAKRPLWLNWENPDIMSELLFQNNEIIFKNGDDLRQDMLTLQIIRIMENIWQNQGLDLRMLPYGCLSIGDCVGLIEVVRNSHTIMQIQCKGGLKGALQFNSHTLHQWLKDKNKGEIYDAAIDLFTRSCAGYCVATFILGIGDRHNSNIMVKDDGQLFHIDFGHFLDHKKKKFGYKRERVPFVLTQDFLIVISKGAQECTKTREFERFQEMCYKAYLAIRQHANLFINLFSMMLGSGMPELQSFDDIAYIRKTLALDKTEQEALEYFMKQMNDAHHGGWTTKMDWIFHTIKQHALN", "UniProt Q99720, sequence (whole entry, looked up)": "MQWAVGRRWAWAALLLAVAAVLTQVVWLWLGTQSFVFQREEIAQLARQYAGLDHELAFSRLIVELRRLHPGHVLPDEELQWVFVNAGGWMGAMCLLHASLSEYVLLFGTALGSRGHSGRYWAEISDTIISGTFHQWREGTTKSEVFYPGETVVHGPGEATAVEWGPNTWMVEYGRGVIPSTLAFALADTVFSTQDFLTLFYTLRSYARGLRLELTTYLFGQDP", "UniProt Q9Y2K2, sequence (whole entry, looked up)": "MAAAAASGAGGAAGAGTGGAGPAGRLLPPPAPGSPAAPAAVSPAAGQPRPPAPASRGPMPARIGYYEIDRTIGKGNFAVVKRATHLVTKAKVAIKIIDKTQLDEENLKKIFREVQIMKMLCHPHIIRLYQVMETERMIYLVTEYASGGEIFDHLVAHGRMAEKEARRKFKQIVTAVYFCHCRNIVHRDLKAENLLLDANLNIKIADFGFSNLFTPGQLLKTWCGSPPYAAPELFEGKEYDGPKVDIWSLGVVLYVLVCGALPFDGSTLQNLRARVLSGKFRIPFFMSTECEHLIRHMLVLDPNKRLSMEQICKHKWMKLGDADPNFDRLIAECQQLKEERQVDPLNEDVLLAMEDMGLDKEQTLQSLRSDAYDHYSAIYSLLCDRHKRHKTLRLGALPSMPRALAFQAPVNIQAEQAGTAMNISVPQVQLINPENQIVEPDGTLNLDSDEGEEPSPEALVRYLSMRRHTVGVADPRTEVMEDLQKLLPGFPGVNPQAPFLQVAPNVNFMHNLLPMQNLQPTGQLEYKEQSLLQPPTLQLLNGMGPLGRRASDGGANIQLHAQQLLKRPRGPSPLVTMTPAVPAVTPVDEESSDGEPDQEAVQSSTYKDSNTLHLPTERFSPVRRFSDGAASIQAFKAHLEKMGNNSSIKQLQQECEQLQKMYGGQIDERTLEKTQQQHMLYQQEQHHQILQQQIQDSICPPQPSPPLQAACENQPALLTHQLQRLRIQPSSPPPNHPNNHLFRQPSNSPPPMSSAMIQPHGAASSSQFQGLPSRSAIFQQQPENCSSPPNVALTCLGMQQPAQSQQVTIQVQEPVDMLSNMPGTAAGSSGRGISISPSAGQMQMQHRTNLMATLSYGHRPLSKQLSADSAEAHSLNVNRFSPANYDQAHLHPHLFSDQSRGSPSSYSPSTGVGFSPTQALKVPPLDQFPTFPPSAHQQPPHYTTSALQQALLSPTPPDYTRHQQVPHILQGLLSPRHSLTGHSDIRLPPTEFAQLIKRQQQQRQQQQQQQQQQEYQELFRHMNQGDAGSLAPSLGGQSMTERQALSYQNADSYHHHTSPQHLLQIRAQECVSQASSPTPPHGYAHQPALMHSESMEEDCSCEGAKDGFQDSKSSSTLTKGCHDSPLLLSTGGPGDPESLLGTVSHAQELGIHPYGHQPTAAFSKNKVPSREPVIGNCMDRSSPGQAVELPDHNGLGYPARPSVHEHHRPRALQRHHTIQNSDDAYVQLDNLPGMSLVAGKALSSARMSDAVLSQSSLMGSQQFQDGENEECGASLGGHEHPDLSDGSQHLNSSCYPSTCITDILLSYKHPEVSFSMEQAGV", "UniProt P56817, sequence (whole entry, looked up)": "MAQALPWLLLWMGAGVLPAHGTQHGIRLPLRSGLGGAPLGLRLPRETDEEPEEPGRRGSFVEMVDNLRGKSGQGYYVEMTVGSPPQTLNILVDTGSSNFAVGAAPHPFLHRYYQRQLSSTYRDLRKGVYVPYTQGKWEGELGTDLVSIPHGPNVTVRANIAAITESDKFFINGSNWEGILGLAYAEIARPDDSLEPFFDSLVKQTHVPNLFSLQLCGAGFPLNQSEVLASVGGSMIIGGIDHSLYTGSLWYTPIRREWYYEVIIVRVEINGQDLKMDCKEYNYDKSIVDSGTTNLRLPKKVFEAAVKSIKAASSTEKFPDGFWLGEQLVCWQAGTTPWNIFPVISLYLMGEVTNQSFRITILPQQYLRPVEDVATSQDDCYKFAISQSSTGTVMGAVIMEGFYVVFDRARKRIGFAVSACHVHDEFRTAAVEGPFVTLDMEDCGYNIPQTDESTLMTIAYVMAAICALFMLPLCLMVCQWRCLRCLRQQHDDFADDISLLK", "UniProt P34969, sequence (whole entry, looked up)": "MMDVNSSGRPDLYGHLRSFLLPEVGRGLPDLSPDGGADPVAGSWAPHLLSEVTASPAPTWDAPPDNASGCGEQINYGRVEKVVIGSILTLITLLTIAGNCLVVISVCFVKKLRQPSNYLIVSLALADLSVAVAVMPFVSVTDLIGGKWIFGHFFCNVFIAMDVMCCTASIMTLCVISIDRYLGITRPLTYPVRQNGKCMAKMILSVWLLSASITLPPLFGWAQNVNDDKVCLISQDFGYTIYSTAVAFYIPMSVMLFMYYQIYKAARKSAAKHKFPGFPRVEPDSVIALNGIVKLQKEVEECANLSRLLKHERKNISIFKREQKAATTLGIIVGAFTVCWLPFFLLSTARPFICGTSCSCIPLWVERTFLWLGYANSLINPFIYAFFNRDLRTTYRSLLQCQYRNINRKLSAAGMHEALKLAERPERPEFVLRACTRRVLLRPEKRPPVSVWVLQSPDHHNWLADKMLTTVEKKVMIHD", "UniProt C7FF04, sequence (whole entry, looked up)": "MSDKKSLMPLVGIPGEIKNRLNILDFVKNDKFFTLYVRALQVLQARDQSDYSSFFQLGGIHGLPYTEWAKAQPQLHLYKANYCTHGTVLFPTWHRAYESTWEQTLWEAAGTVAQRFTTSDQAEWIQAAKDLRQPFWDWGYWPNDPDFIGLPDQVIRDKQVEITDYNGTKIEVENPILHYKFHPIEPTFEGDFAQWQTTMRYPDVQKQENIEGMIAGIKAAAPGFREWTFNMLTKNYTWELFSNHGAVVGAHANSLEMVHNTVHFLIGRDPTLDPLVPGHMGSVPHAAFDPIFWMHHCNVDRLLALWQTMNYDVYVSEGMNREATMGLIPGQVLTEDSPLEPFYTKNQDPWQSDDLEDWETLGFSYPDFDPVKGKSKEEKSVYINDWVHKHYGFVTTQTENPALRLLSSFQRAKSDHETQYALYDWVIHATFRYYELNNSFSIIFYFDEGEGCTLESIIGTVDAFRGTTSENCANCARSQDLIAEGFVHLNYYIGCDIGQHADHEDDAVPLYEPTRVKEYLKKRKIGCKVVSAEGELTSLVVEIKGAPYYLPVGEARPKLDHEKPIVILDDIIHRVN"}
{"SMILES": "COc1ccccc1-c1ccn2nc(NC(=O)C3CC3)cc2c1", "target": "SIK3", "assay": "cell-free assay, inhibitor", "Ki [nM]": 406}
{"SMILES": "CNCc1ccccc1OCc1ccc(C)cc1", "target": "Slc6a4", "assay": "ligand displacement, radioligand", "Ki [nM]": 28.4}
{"SMILES": "Cc1ccc(C2CCN(C3CCCCC3O)CC2)cc1 (racemic)", "target": "SIGMAR1", "assay": "displacement, radioligand binding", "test system": "HEK293", "setting": "together with: [3H](+)-pentazocine", "Ki [nM]": "14 ± 4"}
{"SMILES": "COc1ccc(C(CNc2cccc(F)c2C#N)N(C)C)cc1 (stereo not shown)", "target": "Slc6a4", "assay": "ligand displacement, radioligand", "Ki [nM]": 56}
{"SMILES": "CCC1(CC)CC(=O)N(C2c3cc(C(=O)NC4c5ccccc5CC4O)ccc3OC2(C)COC)C(=N)N1 (stereo not shown)", "target": "Beta-secretase 1 (BACE1, Homo sapiens, UniProt P56817)", "assay": "enzyme activity, inhibitor", "Ki [nM]": "> 5740"}
{"SMILES": "Cc1ccc2c(c1)C1CN(C)CCC1N2Sc1ccccc1[N+](=O)[O-] (stereo not shown)", "target": "Slc6a4", "assay": "ligand displacement, radioligand", "Ki [nM]": 268}
{"SMILES": "OC1Cc2ccccc2CC1N1CCC(c2ccc(Br)cc2)CC1 (racemic)", "target": "SIGMAR1", "assay": "displacement, radioligand binding", "test system": "HEK293", "setting": "together with: [3H](+)-pentazocine", "Ki [nM]": "2.6 ± 1.1"}
{"SMILES": "Nc1ncc(-c2nc(N3CCOCC3)nc(N3CCN(C(=O)CCC(=O)NCCCCCCCCCCNc4cccc5c4C(=O)N(C4CCC(=O)NC4=O)C5=O)CC3)n2)c(C(F)F)n1 (stereo not shown)", "target": "PIK3CA", "assay": "ligand displacement, TR-FRET", "Ki [nM]": 3.43}
{"SMILES": "OC1CCCCC1N1CCC(c2ccc(Br)cc2)CC1 (racemic)", "target": "SIGMAR1", "assay": "displacement, radioligand binding", "test system": "HEK293", "setting": "together with: [3H](+)-pentazocine", "Ki [nM]": "4.8 ± 2.2"}
{"SMILES": "OC[C@H]1O[C@@H](Oc2cc3c(O)cc(O)cc3[o+]c2-c2cc(O)c(O)c(O)c2)[C@H](O)[C@@H](O)[C@H]1O", "target": "PPO3 (Agaricus bisporus, UniProt C7FF04)", "assay": "enzyme activity, inhibitor", "Ki [nM]": 22400}
{"SMILES": "COc1ccc(CC(CN)c2ccccc2)cc1 (stereo not shown)", "target": "Slc6a4", "assay": "ligand displacement, radioligand", "Ki [nM]": 2300}
{"SMILES": "Nc1ncc(-c2nc(N3CCOCC3)nc(N3CCN(C(=O)CCC(=O)NCCCCCCCCCCCNc4cccc5c4C(=O)N(C4CCC(=O)NC4=O)C5=O)CC3)n2)c(C(F)F)n1 (stereo not shown)", "target": "PIK3CA", "assay": "ligand displacement, TR-FRET", "Ki [nM]": 3.99}
{"SMILES": "O=C(NCCCCCCOP(=O)(O)OP(=O)(O)OP(=O)(O)O)OCC1c2ccccc2-c2ccccc21", "target": "DNA polymerase alpha catalytic subunit (POLA1, Homo sapiens, UniProt P09884)", "assay": "enzyme activity, inhibitor, radiometric", "Ki [nM]": 145000}
{"SMILES": "COc1ccc(C(CCN)c2ccc(F)cc2)cc1 (stereo not shown)", "target": "Slc6a4", "assay": "ligand displacement, radioligand", "Ki [nM]": 22.3}
{"SMILES": "Nc1ncc(-c2nc(N3CCOCC3)nc(N3CCN(C(=O)CCC(=O)NCCCCCCNc4cccc5c4C(=O)N(C4CCC(=O)NC4=O)C5=O)CC3)n2)c(C(F)F)n1 (stereo not shown)", "target": "PIK3CA", "assay": "ligand displacement, TR-FRET", "Ki [nM]": 1.85}
{"SMILES": "CN1CC[C@@H](COc2cnc(C#N)cc2-c2ccn3nc(NC(=O)C4CC4)cc3c2)C1", "target": "SIK3", "assay": "enzyme activity, inhibitor", "Ki [nM]": 51}
{"SMILES": "OCC1CCCN1Cc1cccc(Oc2ccccc2)c1 (stereo not shown)", "target": "Slc6a4", "assay": "ligand displacement, radioligand", "Ki [nM]": 926}
{"SMILES": "CC(C)[C@@H]1NC(=O)[C@H](Cc2ccccc2)NC(=O)[C@H](Cc2ccc(O)cc2)NC(=O)CCSSC[C@@H](C(=O)N2CCC[C@H]2C(=O)N[C@H](CCCNC(=N)N)C(=O)NCC(N)=O)NC(=O)[C@H](CC(N)=O)NC1=O", "target": "Vasopressin V1a receptor (AVPR1A, Homo sapiens, UniProt P37288)", "assay": "ligand displacement, radioligand", "setting": "cell membranes", "Ki [nM]": 16.5}
{"SMILES": "C[C@]12COc3ccc(OCc4ccc(C(F)(F)F)cc4)cc3[C@H]1CCN2", "target": "SIGMAR1", "assay": "cell-free assay, radioligand", "Ki [nM]": 2.4}
{"SMILES": "Nc1ncc(-c2nc(N3CCOCC3)nc(N3CCOCC3)n2)c(C(F)F)n1", "target": "PIK3CA", "assay": "ligand displacement, TR-FRET", "Ki [nM]": 2.84}
{"SMILES": "Cn1ccc2c(N3CCN(CCCCOc4ccc5c(c4)NC(=O)CC5)CC3)cccc21", "target": "5-hydroxytryptamine receptor 7 (HTR7, Homo sapiens, UniProt P34969)", "assay": "ligand displacement, radioligand", "Ki [nM]": 53}
{"SMILES": "C[C@]12COc3ccc(OCc4ccccc4C(F)(F)F)cc3[C@H]1CCN2", "target": "SIGMAR1", "assay": "cell-free assay, radioligand", "Ki [nM]": 2.7}
{"note": "Excerpt of the above:"}
{"SMILES": "COc1ccc(CC(CN)c2ccccc2)cc1 (stereo not shown)", "target": "Slc6a4", "assay": "ligand displacement, radioligand", "Ki [nM]": 2300}
{"SMILES": "Nc1ncc(-c2nc(N3CCOCC3)nc(N3CCOCC3)n2)c(C(F)F)n1", "target": "PIK3CA", "assay": "ligand displacement, TR-FRET", "Ki [nM]": 2.84}
{"SMILES": "OC1CCCCC1N1CCC(c2ccc(Br)cc2)CC1 (racemic)", "target": "SIGMAR1", "assay": "displacement, radioligand binding", "test system": "HEK293", "setting": "together with: [3H](+)-pentazocine", "Ki [nM]": "4.8 ± 2.2"}
